Measurements of several laboratories.
Each numbered part is a random draw from the data of one study; scales do not carry over between parts.
Sequence of UniProt P54753 (whole entry, looked up): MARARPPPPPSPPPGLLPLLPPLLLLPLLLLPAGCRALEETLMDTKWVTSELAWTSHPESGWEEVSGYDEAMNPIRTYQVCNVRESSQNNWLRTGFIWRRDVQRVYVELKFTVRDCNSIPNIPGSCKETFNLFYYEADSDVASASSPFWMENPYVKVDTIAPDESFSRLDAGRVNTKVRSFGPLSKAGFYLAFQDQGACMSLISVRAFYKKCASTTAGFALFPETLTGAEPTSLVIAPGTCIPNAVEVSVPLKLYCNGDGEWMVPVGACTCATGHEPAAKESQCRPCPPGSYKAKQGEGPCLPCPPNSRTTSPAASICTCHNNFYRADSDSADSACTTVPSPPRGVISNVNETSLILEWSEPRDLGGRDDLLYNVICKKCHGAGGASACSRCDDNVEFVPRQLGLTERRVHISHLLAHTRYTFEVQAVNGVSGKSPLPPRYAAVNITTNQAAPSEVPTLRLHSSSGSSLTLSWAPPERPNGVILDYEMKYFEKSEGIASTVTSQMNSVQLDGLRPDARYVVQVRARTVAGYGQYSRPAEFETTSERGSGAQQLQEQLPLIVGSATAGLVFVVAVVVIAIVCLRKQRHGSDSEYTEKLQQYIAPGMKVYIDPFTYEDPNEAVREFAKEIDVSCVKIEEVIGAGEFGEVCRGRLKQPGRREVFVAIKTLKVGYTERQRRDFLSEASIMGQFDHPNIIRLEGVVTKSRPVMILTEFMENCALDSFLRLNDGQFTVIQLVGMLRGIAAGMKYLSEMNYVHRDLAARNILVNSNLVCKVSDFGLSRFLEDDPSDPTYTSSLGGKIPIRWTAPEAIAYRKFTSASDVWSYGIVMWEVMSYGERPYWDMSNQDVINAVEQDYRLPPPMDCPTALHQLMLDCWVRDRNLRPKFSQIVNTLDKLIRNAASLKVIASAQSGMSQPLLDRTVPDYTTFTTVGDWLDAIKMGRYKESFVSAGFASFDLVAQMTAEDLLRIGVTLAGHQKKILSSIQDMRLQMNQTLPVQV

Block 1 — technique: RNA Bind-n-Seq; form: RNA; sample: in vitro; tested at: 365 nM; reference: no-protein control; direction: higher = stronger binding
Target: RNA binding protein fox-1 homolog 2, RRM domain, GST-SBP tag (RBFOX2, Homo sapiens, UniProt O43251-10, residues 100-194)
Notes: natural RNA segment, single round, ends assumed
Constant ends, left off below: GGGAGUUCUACAGUCCGACGAUC … UGGAAUUCUCGGGUGCCAA
Residues (chain): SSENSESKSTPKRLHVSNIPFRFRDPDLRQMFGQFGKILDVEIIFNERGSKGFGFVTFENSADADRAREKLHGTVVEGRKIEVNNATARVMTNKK
Sequence	RBNS enrichment (R)
AUGAGAGUGUAGUCAAGGGCCUGGGCACAGGAGGGAGAGCUGCAGAGUGUCCUGCCUGCCUUGGCUGGAGGGACACCUCUCCUGGGUGUGGAGACAGCUUGGUUCCCUUU	0.533
CUGUCUUCCAGGACACAUUUUUAGAUACUCUGACAGGCCACUGCAUCUCAGAUUCAGGGGAGAAAAUAAGUUGUCACCUCCCCUUCAAAGUUCCAGAGUAAACAAAUGGU	1.22
CACCCCUCCCACAGCACCCAGCCUCACUACCCCAGCAUGGGGUACCCAGCUGGAUACUCCCAAAAUGUCACAUCCCAUCCAACCUCAGAUCUGAUGCAGUCAUCUGUGUC	0.475
CUGUCUCCAAAAGAAAGAAAUCCCAGCGUAGAUCCAAACUGAGACACUGAGGCUUCGUCCUUAUAGUAGUCAGGAGCAGGCGAUUGAAGUAAUUCUGUCCUGCGGGGUUC	0.283
UCUUUGGAUGCUCACGGGUUCUGUUCCAGUGCUAUUUUCUAUGAAUAUAGCAGCAUCGUUUCCUUUUUCAGUGAAAUUUCAACCAUAAGUAGAAAAGAAUUGUUUACUAU	0.301
UGUUGACUGGAUUUUGCAAAAGGAUGUAUAAUAUUUCUGUCUGCUCAGAAUAUUAAUUUGUAAAUUCUGCAAGUUUAAUUUUUAUGUAGAUGGUAUAACAUUUGAAAAUA	1.78
CUGAUUAUGUCUUCACAGACUGGCUCAGGUUCUUCACGAAGAAGAUGGCCUUUGUGGGAUUUAAUUCGGGGUUUGCUCAUCCCUUUACUUUAGGUGGAACUAUUUUCAGU	0.31
AUUAUUUUAUCAUGCGGUUGCUGGGGAAUACAACUAACACUUUUGAAGCUACUAAUUUUAUGUCAAGCUUUAAAGUCCAUAAUUGUUAUCUUCAGAAAUAUUAUUUGACC	0.44

Block 2 — technique: RNA Bind-n-Seq; form: RNA; sample: in vitro; tested at: 20 nM; notes: 6-mer, flanks averaged, single round; added: 150 mM LiCl; reference: input library; direction: higher = stronger binding
Target: TAR DNA-binding protein 43, full length, His tag (TARDBP, Homo sapiens, UniProt Q13148, residues 1-414)
Sequence	6-mer enrichment (R)
GGAUAG	1.01
CACUAA	0.863
AGUAGA	0.991
CCAUUC	0.909
AGCCCU	0.999
CUUCGG	0.835
UCCGCG	0.909
UAGGGC	0.981

Further values, each from its own experiment
SMILES	tested on	test	conditions	how to read	quantity	result
O=C1C(Cl)=C(N2C(=O)CCC2=O)C(=O)c2ccccc21	Ephrin type-B receptor 3 (EPHB3, Homo sapiens, UniProt P54753)	enzyme activity, inhibitor	0.5 µM	reference: control	remaining activity	97%
c1ccc(Oc2ccc(Nc3c4c(nc5ccccc35)CCC4)cc2)cc1	–	HPLC retention	pH 7.4	–	logD	> 5.3

For quick reference, copied from above (block 1):
Sequence	RBNS enrichment (R)
UCUUUGGAUGCUCACGGGUUCUGUUCCAGUGCUAUUUUCUAUGAAUAUAGCAGCAUCGUUUCCUUUUUCAGUGAAAUUUCAACCAUAAGUAGAAAAGAAUUGUUUACUAU	0.301
